Measurements of several laboratories.
Parts stem from different laboratories: compare values within a part only. Changes are numbered by the printed parent chain.

Block 1
Target: ABI1, truncated, D143A, DHFR fusion (Arabidopsis thaliana)
Method: DHFR PCA, deep sequencing
Sample: yeast
Setting: methotrexate growth selection, single substitutions
Added: (+)-ABA 4.8 µM
Relative to: wild-type fitted maximum
Direction: higher = stronger binding
Measurement: relative binding score
Parent: PYL1, truncated, DHFR fusion (Arabidopsis thaliana); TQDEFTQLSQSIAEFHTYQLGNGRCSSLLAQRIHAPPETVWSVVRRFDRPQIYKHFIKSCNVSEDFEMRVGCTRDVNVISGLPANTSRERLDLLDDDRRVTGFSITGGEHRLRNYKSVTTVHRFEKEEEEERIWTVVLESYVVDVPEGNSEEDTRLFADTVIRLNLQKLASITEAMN; partner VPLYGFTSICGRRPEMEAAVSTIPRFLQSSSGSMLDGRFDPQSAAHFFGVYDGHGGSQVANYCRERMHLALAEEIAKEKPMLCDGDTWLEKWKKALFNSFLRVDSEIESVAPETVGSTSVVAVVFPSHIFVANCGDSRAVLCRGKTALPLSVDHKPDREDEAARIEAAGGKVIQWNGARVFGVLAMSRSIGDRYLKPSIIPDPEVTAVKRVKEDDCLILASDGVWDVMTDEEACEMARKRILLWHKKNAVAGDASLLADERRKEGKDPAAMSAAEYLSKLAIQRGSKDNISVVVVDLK
E151D: 64.2%
D75N: 73.4%
V100M: 40.7%
V62H: 5.67%
Y18R: 32.8%
E38L: 1.98%
G108F: -1.66%
R99A: 5.84%
A13K: 78.9%
E67L: 48.2%
L156Y: 52.2%
V143S: -5.35%
L28G: 2.08%
T135I: -5.71%
R88A: 46.8%

Block 2
Target: Ras GTPase-activating protein-binding protein 1, RRM domain (G3BP1, Homo sapiens, UniProt Q13283)
UniProt Q13283, sequence (whole entry, looked up): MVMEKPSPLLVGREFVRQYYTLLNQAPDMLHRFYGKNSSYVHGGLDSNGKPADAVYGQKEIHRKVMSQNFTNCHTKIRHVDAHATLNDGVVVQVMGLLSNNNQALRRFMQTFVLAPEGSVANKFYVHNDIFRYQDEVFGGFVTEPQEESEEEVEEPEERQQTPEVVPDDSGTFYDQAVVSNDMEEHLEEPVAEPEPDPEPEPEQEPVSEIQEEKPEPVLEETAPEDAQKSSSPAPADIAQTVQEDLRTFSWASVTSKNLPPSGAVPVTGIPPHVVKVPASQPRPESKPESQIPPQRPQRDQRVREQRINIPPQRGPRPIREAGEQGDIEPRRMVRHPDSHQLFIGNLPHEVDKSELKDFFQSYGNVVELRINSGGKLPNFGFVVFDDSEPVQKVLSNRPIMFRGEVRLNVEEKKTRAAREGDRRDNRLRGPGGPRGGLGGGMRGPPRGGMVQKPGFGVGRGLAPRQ
Method: RNA Bind-n-Seq
Form: RNA
Sample: in vitro
Concentration: 1 µM
Setting: whole 134-nt RNA, ends assumed
Added: 150 mM KCl
Relative to: input library
Direction: higher = stronger binding
Measurement: log2 enrichment
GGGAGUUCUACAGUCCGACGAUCUCCUGUGCUACACAUCGUAUGUACCGAAUCGGGGUUUUUGGGGAAAAAAAGGGGAGGGGAAAGUAUUAUGUUACGCCGUUCGGAUCUGCAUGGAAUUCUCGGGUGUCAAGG: 0.652
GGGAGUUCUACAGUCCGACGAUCAGUCCUGUGCUACACAUCGUAUGUACCGAAUCGGGGAAAGGGGUUUUUGGGGAGGGGAAAGUAUUAUGUUACGCCGUUCGGAUCUGCACUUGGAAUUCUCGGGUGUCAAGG: 1.22
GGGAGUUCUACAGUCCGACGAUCCCUCAAGUCCUGUGCUACACAUCGUAUGUACCGAAUCGGCGGGGCGGCGGGGAAAGUAUUAUGUUACGCCGUUCGGAUCUGCACUUCCAGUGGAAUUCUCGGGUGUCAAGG: -0.439
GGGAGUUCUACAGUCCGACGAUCCAAGUCCUGUGCUACACAUCGUAUGUACCGAAUCGGGAAAGGGAAAGGGUUUGGGAAAGUAUUAUGUUACGCCGUUCGGAUCUGCACUUCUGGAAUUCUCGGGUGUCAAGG: 0.717
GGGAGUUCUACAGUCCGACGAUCCUGUGCUACACAUCGUAUGUACCGAAUCGGCCCCCCCGGGCCCCCCCGGGGCCCCCCCGGGGAAAGUAUUAUGUUACGCCGUUCGGAUCUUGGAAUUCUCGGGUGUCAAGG: -0.559
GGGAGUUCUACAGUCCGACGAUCCAAGUCCUGUGCUACACAUCGUAUGUACCGAAUCGGAAAGGAAAAAAAGGUUUGGAAAGUAUUAUGUUACGCCGUUCGGAUCUGCACUUCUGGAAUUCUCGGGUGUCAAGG: -0.23
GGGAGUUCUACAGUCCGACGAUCUGUGUGACUUCCUUGGAGAGAAGAUUGCAUCUGUUUUGGGUAUCAGCACCCCAAAGUACCAAUAUGCCAUUGAUGAAUAUUAUCGGAUGAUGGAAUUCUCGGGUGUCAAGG: -0.0941
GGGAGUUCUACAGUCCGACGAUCUCCUGUGCUACACAUCGUAUGUACCGAAUCAAAUUUUUUUAAACCCCCAAACCCCCAAAAAAGUAUUAUGUUACGCCGUUCGGAUCUGCAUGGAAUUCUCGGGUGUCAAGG: -1.17
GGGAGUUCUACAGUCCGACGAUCUAUUGGACACAGUGCCCCGCUGAACAGCAGCUGUUCCCAGCGCCAGAGGACCCCACAGCCACAGUAGGAGCUUUGCGACCCCUACGCAACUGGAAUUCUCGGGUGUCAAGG: -0.387
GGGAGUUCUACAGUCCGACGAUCGAGCAAAGAGCCAUUCAGCUUCAGUCUUUACAUACCAUGAAUAAAACAUUAAAACAUCAUAUGGAGAAGUUUACAUGGUGAUUGUUCACCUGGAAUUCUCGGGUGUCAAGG: -0.0859

Block 3
Target: CCNB2, cyclin fold, Cln2 fusion (human)
Method: yeast growth competition, sequencing
Sample: yeast
Setting: strong parent motif
Relative to: not given
Direction: higher = stronger binding
Measurement: normalised enrichment score
Parent: MICAL3 docking peptide (human); LQLRRQLSFSEDS; partner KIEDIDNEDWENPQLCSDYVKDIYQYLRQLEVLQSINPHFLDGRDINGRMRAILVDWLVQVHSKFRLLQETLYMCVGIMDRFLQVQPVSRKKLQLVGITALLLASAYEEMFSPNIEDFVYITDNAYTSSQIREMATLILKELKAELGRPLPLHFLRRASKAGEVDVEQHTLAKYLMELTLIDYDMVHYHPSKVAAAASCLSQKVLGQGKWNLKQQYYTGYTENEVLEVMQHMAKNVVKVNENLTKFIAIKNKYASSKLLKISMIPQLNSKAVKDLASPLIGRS
LQLRRQLSFSEGS [D12G]: 3.22
LQLRRQLFFSEDS [S8F]: 1.09
LQLRRQLSSSEDS [F9S]: -0.124
LQLRRQMSFSEDS [L7M]: 1.01
LQLRRQLSFSWDS [E11W]: 1.18
LQLRRQLSFLEDS [S10L]: 1.26
LQLRRQLYFSEDS [S8Y]: 0.946
LQLRRQLSFSEPS [D12P]: 2.9
LQLRRQLSFCEDS [S10C]: 1.85
LQLRRQLSHSEDS [F9H]: -0.156
LQLRRQCSFSEDS [L7C]: -0.11
LQLRRQLSFSPDS [E11P]: 1.53
LQLRRQLSFEEDS [S10E]: 3.14
LQLRRYLSFSEDS [Q6Y]: 1.61
LQLRRQLSFSEVS [D12V]: 3.17
LPLRRQLSFSEDS [Q2P]: 4.51
LQLRRQLSFKEDS [S10K]: 1.44
LQLRRELSFSEDS [Q6E]: 1.64
LQLRRQLQFSEDS [S8Q]: 1.05
LQLQRQLSFSEDS [R4Q]: 1.15
LQTRRQLSFSEDS [L3T]: 1.41
LQLRRQLSFHEDS [S10H]: 1.46
LQLRRQLSFSLDS [E11L]: 2.18
LQLRRQLSFSENS [D12N]: 2.48
LQLRRQLSFSEHS [D12H]: 2.29

Block 4
Target: JUN, bZIP domain (human)
Method: DHFR protein complementation
Sample: yeast
Setting: single substitutions, most at no-binding floor
Relative to: wild-type JUN-FOS pair
Direction: higher = stronger binding
Measurement: binding fitness
Parent: JUN, bZIP domain (human); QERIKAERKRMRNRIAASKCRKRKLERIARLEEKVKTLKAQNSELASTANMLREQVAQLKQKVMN
L52Q: -1.46 natural log
L45K: -1.33 natural log
L38A: -1.31 natural log
E44P: -1.32 natural log
Q41P: -1.48 natural log
L45H: -1.28 natural log
A57P: -1.38 natural log
L38F: -1.26 natural log
S47P: -1.35 natural log

Block 5
Target: Histone acetyltransferase KAT6A, winged helix 2, GST fusion (KAT6A, Homo sapiens, UniProt Q92794, residues 85-181)
Method: protein binding microarray
Form: double-stranded DNA, one strand shown
Sample: in vitro
Concentration: not given
Setting: 8-mer, flanks averaged, mean of 2 arrays, mostly near background
Relative to: not given
Direction: higher = stronger binding
Measurement: E-score
Residues (chain): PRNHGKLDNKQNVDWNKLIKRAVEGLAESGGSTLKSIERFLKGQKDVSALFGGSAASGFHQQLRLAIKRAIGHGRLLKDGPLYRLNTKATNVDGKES
AGGATTTG: 0.00129
CAGTACCA: 0.0372
CCATCTTA: -0.0716
CTCCTTGC: -0.073
CAAATGCA: -0.0172
ATGGTGAC: -0.112
CGACAAAG: 0.106
CCTTGTTC: -0.129
TGCTTACA: 0.0356
AAATTGTT: 0.0924
CGGTCGTA: -0.0746
GTGTTGCA: 0.0343
AGGCCTAC: -0.0696
CACCGTGC: -0.0194
ATACGGCA: 0.15
GGGAAGTA: -0.0537
AGAACCCG: -0.128
GGCCGCAC: 0.0722
CCAGAGGG: 0.06
CATCGCGG: 0.21
CGTCTAAA: -0.123
GCGATGTA: -0.0197
TACTTTAA: -0.206

Block 6
Target: Sal-like protein 4, full length isoform B (SALL4, Homo sapiens, UniProt Q9UJQ4-2, residues 1-616)
Method: universal PBM
Form: double-stranded DNA, one strand shown
Sample: in vitro
Concentration: not given
Setting: 8-mer, flanks averaged, mean of replicates
Direction: higher = stronger binding
Measurement: E-score
CTCCCTAA: 0.00289
CCTAACTC: -0.189
CTGAGATC: -0.286
AACGGCTG: -0.127
AACGGCTT: -0.123
GGGTGCCA: -0.131
AGATAGTC: -0.0114
ACATCCTG: 0.183
TAACCCAA: 0.0674
AGCGTTAG: -0.0764
ATTGCGCA: -0.0807
GACGTAGC: 0.00755
GACGGTAC: 0.0389
AAGAAATG: 0.156
AAGTACCA: 0.12
AGAGCTCA: -0.14
CAACCATG: -0.0437
CACGATAA: 0.167
AAACTGGG: -0.17
CCAGCGTA: -0.114
AACGGGCA: -0.0852
CATTAGGC: -0.102
CACCGCGG: -0.302
CATGTAAA: 0.204
ACACTCTG: -0.0121

A few entries again (block 3):
LQLRRQMSFSEDS [L7M]: 1.01
LQLRRQLFFSEDS [S8F]: 1.09
LPLRRQLSFSEDS [Q2P]: 4.51
LQTRRQLSFSEDS [L3T]: 1.41
LQLRRQLSFCEDS [S10C]: 1.85
LQLRRQLYFSEDS [S8Y]: 0.946
LQLRRQLSFSEPS [D12P]: 2.9
LQLRRQLSFSEGS [D12G]: 3.22
LQLRRQLSFSENS [D12N]: 2.48
LQLRRQLSFSEVS [D12V]: 3.17
LQLRRQLSFHEDS [S10H]: 1.46
LQLRRQLSFSWDS [E11W]: 1.18
LQLRRELSFSEDS [Q6E]: 1.64
LQLQRQLSFSEDS [R4Q]: 1.15
LQLRRYLSFSEDS [Q6Y]: 1.61
LQLRRQLQFSEDS [S8Q]: 1.05
LQLRRQLSFSLDS [E11L]: 2.18
LQLRRQLSHSEDS [F9H]: -0.156
